Experimental data collected from several papers.
Numbered parts are unrelated; each lists some results of a single study.

Series 1
Target: RING finger protein unkempt homolog, zinc fingers 1-6, GST-SBP tag (UNK, Homo sapiens, UniProt Q9C0B0, residues 30-357)
Technique: RNA Bind-n-Seq
Molecule type: RNA
Sample: in vitro
Concentration: not given
Notes: RNA with constant flanks, human and mouse sites, ends assumed
Reference: input RNA pool
Reading: higher = stronger binding
Endpoint: bound/input enrichment
Shared flanks, not repeated: GGGAGUUCUACAGUCCGACGAUC … CAACAGAGGAUUGAGCAUCA
Construct (chain): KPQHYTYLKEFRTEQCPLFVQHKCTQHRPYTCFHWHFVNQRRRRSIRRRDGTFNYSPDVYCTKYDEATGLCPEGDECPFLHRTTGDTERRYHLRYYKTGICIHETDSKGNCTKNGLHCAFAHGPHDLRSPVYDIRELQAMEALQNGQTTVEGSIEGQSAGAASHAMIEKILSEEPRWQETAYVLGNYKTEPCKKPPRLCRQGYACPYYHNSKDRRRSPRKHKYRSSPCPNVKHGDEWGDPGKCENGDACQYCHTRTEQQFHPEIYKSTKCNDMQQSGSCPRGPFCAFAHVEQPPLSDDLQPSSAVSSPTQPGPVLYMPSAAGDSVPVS
UCUGCACUCCAGCUUGAAAGUGCCUUUGGCUCGAGAUUCCAGCUUAGAAAGUGCCACCAUAAUAACGACAAUUUGUAGAGAGACCAAAAAUAUUUCGAGAUCACCAUAAUGCCUUUGGUU: 0.265 ratio
AAGUCCAUUACUAUCCUCUCUACCCCUGAAGGCACCUCUGCAGCUUGUAAGUCUAUUCUGGAGAUUAUGCAUAAGGAAGCUCAAGAUAUAAAAUUCACAGAGGAGAUUCCCUUGAAGAUC: 0.176 ratio
GUUCACCUGCAGCAGCCAACUUCUAGUCCUCAGGACAGCAGUAGCUUUGAAUCCAGAGGAAGUGAUGGUGGAAGCAUGCUUAAAGCUCUGCCUUUGAAGAGUAGUCUUACUCCAAGUUCU: 0.179 ratio
AACACACCCACUUCUCAGAUGAAAUUACAGAAGACACCCAGAUCACCUUUAGAGCCAGAAAAUGUGCCCAGUUUACUAUUGAAAGAAAAUGUGAAACAGACAGAAUCACAACAGACUGGG: 0.581 ratio
GUUACAGGUCCUGGUGGUGUUCCAGUUCAAGGCAGUAAAUAUGCAGCAGACCGUAACCAUUAUAGACGCUAUCCACGUCGUAGGGGUCCUCCACGCAAUUACCAGCAAAAUUACCAGAAU: 0.214 ratio
AAAAGAGCUAAUCCUCAAGUCGGCGUGGCUUUUCCUCAUAUCAAGCAUAACUAUGAGUGUUUAGUGUAUGUGCAGCUGCCUUUCAUGGAAGACUUGCGGCAAUACAUGUUUUCAUCCUUG: 0.0515 ratio
CGGGAUGAGGAGGUCAGCUCUGCUGACAUCAGUAGUUCGUCUGAAGUGAUUUCGCAGCACCUAGUAUCUUACAGGAACAUCGAAGAGCUUCAGCAGCAGAAUCAGCGUCUGCUAUUCGCU: 0.216 ratio
ACAAAACGCGUUCUCCCGGGGAAGUACUUGGAAGAGAUCGCCACACAGAUGCGCACGCACAGCAUCAACGCGCUGCUGAUCAUCGGUGGAUUCGAGGCCUACCUGGGACUCCUGGAGCUG: 0.0624 ratio
CUUUGUGUUCAUGGUGGACUUUCACCAGAAAUACACACACUGGAUGAUAUUAGGAGAUUAGAUAGAUUUAAAGAGCCACCUGCAUUUGGACCAAUGUGUGACUUGCUAUGGUCUGAUCCU: 22 ratio
ACAAUCCUGUCCCAUGGUAUUUAACAUAAAAAAAAAUAAAACUGUUAACAGAUUCUUGCUCGAUAGCUUGUUUGUGUCUGUCGUGUUAUUAGAGGGAACUCCACUAUAUAUGGUCACUUG: 0.532 ratio
GGGCAUUGAUCUUCGAUCGCGAAGAUGGCUGCUGGCUGCCUGCUGGCCUUGACUCUGACACUUUUCCAAUCUUUGCUCAUCGGCCCCUCGUCGGAGGAGCCGUUCCCUUCGGCCGUCACU: 0.225 ratio

Series 2
Target: RNA binding protein fox-1 homolog 2, RRM domain, GST-SBP tag (RBFOX2, Homo sapiens, UniProt O43251-10, residues 100-194)
Technique: RNA Bind-n-Seq
Molecule type: RNA
Sample: in vitro
Concentration: 365 nM
Notes: natural RNA segment, single round, ends assumed
Reference: no-protein control
Reading: higher = stronger binding
Endpoint: RBNS enrichment (R)
Shared flanks, not repeated: GGGAGUUCUACAGUCCGACGAUC … UGGAAUUCUCGGGUGCCAA
Target sequence (chain): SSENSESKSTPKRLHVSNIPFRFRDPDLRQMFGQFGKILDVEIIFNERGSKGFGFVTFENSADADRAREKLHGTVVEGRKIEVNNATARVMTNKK
UUUCUUGUAAAUAAGCCUGCCUUCCUACCUGGAAUUUGUGUGUGUGUGACUAAUACAUGUUCUACGAGUUAACUACUUUGGCAGUUUUAAUCAUUUCUUCUUUGUUUUGU: 0.658
AGCCUCUUAAUUCUUUGAAGAACUAAAAAAUUAGGAAACAAAGUUCUAGCAUUUACAAAACUCAGAUCUCAAAGCUCUGCUUGUAUUUGUGAUAUUUCAUUUGCUUAACU: 0.407
GCAAGAGCCAUGUUUUUGAGAAGGUUCUGGAUCUCUGACUCCAUCCUGACUGUUUAGUAAGAGCAUGCUUACACCCUACUGUGAAAAGGGGAGGGGAUGUGGUAAGCGGA: 11.8
CACUGACAGUUUGCUCACAGGUUAUGUUUGAAUGUCUUAUGGAAGCAGACGUUAUUUUCCGUGAUUCUUAGGACUACCUGUCUGUCACGAAUCUGCCCACGGUAGUCAGG: 2.7
AGAUGCUACUUGUAUCAUUUUGCCCAUAAAUGGAUAAAUAAUUUUAUGCAUAUCAUACCAAAUGUUCCUAAAAAGUAAUCUUUCAAAAAAGUAUAAAAGAGAAACUGGAA: 0.704
UCAGUUGUGAAGGAGCAGGAGGUUUAGACGAUGAAGAAAUUCUUGACUGUUUUUCAGUUGCUAUAUCAUAUUUUAAAAGUUUCUUUUCUAGCUUGACACUGUACUAGCUU: 0.89
GGUGUGUAUUUAGUCACCAACCGGCCUCCAUUGUGUGUAUCAGCAAACACCAGACUCGCUCAGAGGUGAUGUCCAUCUUUGAGAAACAUGAAGCUUUGCUUUGUGGAUUG: 0.229
CUUUCCUGAGGACCCGGCAGAAAUGCAGAACCAUCCAUGGACUGUGAUUCUGAGGCUGCUGAGACUGAACAUGUUCACAUUGACAGAAAAACAAGCUGCUCUUUAUAAUA: 0.273
GACUUAUUUUAAUUCCACUUUAACAUUUUACUGUGCUGUUAACUUGGAAGACCUGUUUGAAAUUAGUCUUGAUUUCACACUCAUUUAAUCUGCUGAGCACAGGGCUGUUG: 0.51
CCCUGAAACUGAGUCUGUGGACACUGUGGAAAGCUUUGAACAAUUGUGUUUUCGUCACAGGAGUCUUUGUAAUGCUUGUACAGUUGAUGUCGAUGCUCACUGCUUCUGCU: 0.442
CAUUUGGUUCAGAAUCAGUUCCCUUUCUCUGGGACCAAAUUUCCCUUCUCUAAACAUCCUACAGAGAAGGUUCCAAAGCUGAGCACCCAUCACCCUAGGUGUGCACCAGA: 0.4
AUCCAGUUCCUCUUGGUCUUCCUGCUUGGGAACGAGGAAGAUAAGUCUUUUCCUAUCCGAGAUUCUAGAGGAGGAAGACCUUGGGCUCCGACUACUUCAAAAUGAUCUGA: 0.331

Series 3
Target: Histone acetyltransferase KAT6A, winged helix 1, GST fusion (KAT6A, Homo sapiens, UniProt Q92794, residues 1-85)
Technique: protein binding microarray
Molecule type: double-stranded DNA, one strand shown
Sample: in vitro
Concentration: not given
Notes: 8-mer, flanks averaged, mean of 2 arrays, mostly near background
Reference: not given
Reading: higher = stronger binding
Endpoint: E-score
Residues (chain): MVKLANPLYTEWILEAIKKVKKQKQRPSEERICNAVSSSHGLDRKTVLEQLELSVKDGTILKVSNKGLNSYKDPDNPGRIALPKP
GCGGAGTA: 0.18
AGCACATA: -0.138
ACGCTAGC: 0.218
TGTTAACA: 0.0134
AACGACGG: 0.297
GCTCTTCC: 0.0671
ACGAGACA: -0.164
ACAGAGGT: -0.139
ACGGCTAA: 0.323
ACTCCCCT: -0.00813
CCGGCCAA: 0.132
AAAATCGA: -0.244
AGACTGTA: -0.0734
GACTGAGA: -0.149
CCGTGGAC: 0.313
GACGGGGC: 0.282
CACGACGC: 0.23
ATTCACGC: 0.096
AATCTGCC: -0.0184

Series 4
Target: Centromere-binding protein 1, full length, His-tagged (CBF1, Saccharomyces cerevisiae, UniProt P17106, residues 1-351)
Chain of UniProt P17106 (whole entry, looked up): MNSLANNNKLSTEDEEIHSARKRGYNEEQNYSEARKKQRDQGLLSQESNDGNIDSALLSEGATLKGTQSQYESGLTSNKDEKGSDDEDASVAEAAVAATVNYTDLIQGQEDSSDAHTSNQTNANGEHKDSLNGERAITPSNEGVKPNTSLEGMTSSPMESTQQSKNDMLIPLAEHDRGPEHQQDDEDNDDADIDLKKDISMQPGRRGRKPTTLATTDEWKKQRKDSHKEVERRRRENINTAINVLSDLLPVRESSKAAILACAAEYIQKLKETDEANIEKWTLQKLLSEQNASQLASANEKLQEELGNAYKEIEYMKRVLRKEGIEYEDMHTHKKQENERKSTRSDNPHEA
Technique: competition protein-binding microarray
Molecule type: double-stranded DNA, one strand shown
Sample: in vitro
Concentration: 2 µM
Notes: whole 60-bp probe, lowest competitor level
Together with: Pho4 competitor, 0.05 µM
Reading: higher = stronger binding
Endpoint: fluorescence intensity
Shared flanks, not repeated: … GTCTTGATTCGCTTGACGCTGCTG
AAATTACTAAGTTGCGCAGTGGGTGACGCCGTATGA: 56.9 a.u.
CTTTCCCGATCTTGCTCGGTGGGTGTAGCACATTTG: 61.7 a.u.
GTCTTGTCTCATTGTCACGTGGGTGTCCCCACTTCA: 3260 a.u.
GCGATCCTTTTTTAGCACGTGAACGGTAATAACGGG: 4390 a.u.
GCGGAAGACGCGCGAAACGTGAAACATTTTGCATGG: 112 a.u.
CTGTAGTAACAAAAACATGTGGGATGCCAAATTGTA: 107 a.u.
CGTCCTAGTGATTGCCACGTGTTTTCCATGAGGAAG: 1100 a.u.
GGTTGGCTCTGGTAACGCATGACAGGGTATGAAAAA: 110 a.u.
CATACCCAACCTTGCACAGTGGGTGAAGATATTTGT: 71.7 a.u.
CGTCCTAGTGATTGCGAGGTGGGTGCCATGAGGAAG: 74.6 a.u.
TCATACACAATGCGACACATGAAAATACTACTCTTT: 83.4 a.u.
CGGGGTTAAGTTTGCCAGGTGGGTGGCTTGCAGCAG: 64.3 a.u.
CCGCCGGTCTTTTCTCTCGTGGTGAGTGGTACTTTG: 76 a.u.
GTTGGCAGTCTCATCGCCGTGGGTAATCTTGAGTGG: 74.4 a.u.
ATTTGCATATTCGACTTCGTGCAAACAGAAATGCGG: 76.6 a.u.
CCAAGCCTGTAAATCGGTGTGACGGACACCAGAATA: 66.5 a.u.
CTTCTGTAAATTTGGTCCGTGGGTGGACGCGCCCCG: 72.4 a.u.
GCACTTGCTGCCTGTCACCTGGTACAAAGCCATATG: 269 a.u.
TCCTTTTTTGCGAGTCACGTTCCTGCAGCGCGTTTC: 1310 a.u.
CTTTCCCGATCTTGTCACGAGACTTTAGCACATTTG: 1090 a.u.
TGGAGGGTGTACTATCACATGCAGCCTTTGTTTCTA: 229 a.u.
AGATCCTGGACATGGAACGTGAACCTAGGCTTGATG: 66.4 a.u.
AAGATTGCTGAAGACCACATGGAGATACTACGCTCC: 72.7 a.u.
TATCACTCTTGATCGCATGTGCCGTTTCCGAGAACG: 105 a.u.
CTTCCGCGCCGTATGTGTGTGTGTCCAAGGAGTTTG: 70.3 a.u.

Repeated from above (series 2):
AGCCUCUUAAUUCUUUGAAGAACUAAAAAAUUAGGAAACAAAGUUCUAGCAUUUACAAAACUCAGAUCUCAAAGCUCUGCUUGUAUUUGUGAUAUUUCAUUUGCUUAACU: 0.407
GCAAGAGCCAUGUUUUUGAGAAGGUUCUGGAUCUCUGACUCCAUCCUGACUGUUUAGUAAGAGCAUGCUUACACCCUACUGUGAAAAGGGGAGGGGAUGUGGUAAGCGGA: 11.8
CACUGACAGUUUGCUCACAGGUUAUGUUUGAAUGUCUUAUGGAAGCAGACGUUAUUUUCCGUGAUUCUUAGGACUACCUGUCUGUCACGAAUCUGCCCACGGUAGUCAGG: 2.7
AGAUGCUACUUGUAUCAUUUUGCCCAUAAAUGGAUAAAUAAUUUUAUGCAUAUCAUACCAAAUGUUCCUAAAAAGUAAUCUUUCAAAAAAGUAUAAAAGAGAAACUGGAA: 0.704
UCAGUUGUGAAGGAGCAGGAGGUUUAGACGAUGAAGAAAUUCUUGACUGUUUUUCAGUUGCUAUAUCAUAUUUUAAAAGUUUCUUUUCUAGCUUGACACUGUACUAGCUU: 0.89
GGUGUGUAUUUAGUCACCAACCGGCCUCCAUUGUGUGUAUCAGCAAACACCAGACUCGCUCAGAGGUGAUGUCCAUCUUUGAGAAACAUGAAGCUUUGCUUUGUGGAUUG: 0.229
CUUUCCUGAGGACCCGGCAGAAAUGCAGAACCAUCCAUGGACUGUGAUUCUGAGGCUGCUGAGACUGAACAUGUUCACAUUGACAGAAAAACAAGCUGCUCUUUAUAAUA: 0.273
GACUUAUUUUAAUUCCACUUUAACAUUUUACUGUGCUGUUAACUUGGAAGACCUGUUUGAAAUUAGUCUUGAUUUCACACUCAUUUAAUCUGCUGAGCACAGGGCUGUUG: 0.51
CCCUGAAACUGAGUCUGUGGACACUGUGGAAAGCUUUGAACAAUUGUGUUUUCGUCACAGGAGUCUUUGUAAUGCUUGUACAGUUGAUGUCGAUGCUCACUGCUUCUGCU: 0.442
CAUUUGGUUCAGAAUCAGUUCCCUUUCUCUGGGACCAAAUUUCCCUUCUCUAAACAUCCUACAGAGAAGGUUCCAAAGCUGAGCACCCAUCACCCUAGGUGUGCACCAGA: 0.4
